Measurements gathered from unrelated publications.
Lines come from different studies, so protocols differ. Values joined by “and” are separate records of one study, mostly repeats; a detail may differ. ± gives the spread as reported.
ache: Acetylcholinesterase (ache, Electrophorus electricus, UniProt O42275)
Sequence of UniProt O42275 (whole entry, looked up): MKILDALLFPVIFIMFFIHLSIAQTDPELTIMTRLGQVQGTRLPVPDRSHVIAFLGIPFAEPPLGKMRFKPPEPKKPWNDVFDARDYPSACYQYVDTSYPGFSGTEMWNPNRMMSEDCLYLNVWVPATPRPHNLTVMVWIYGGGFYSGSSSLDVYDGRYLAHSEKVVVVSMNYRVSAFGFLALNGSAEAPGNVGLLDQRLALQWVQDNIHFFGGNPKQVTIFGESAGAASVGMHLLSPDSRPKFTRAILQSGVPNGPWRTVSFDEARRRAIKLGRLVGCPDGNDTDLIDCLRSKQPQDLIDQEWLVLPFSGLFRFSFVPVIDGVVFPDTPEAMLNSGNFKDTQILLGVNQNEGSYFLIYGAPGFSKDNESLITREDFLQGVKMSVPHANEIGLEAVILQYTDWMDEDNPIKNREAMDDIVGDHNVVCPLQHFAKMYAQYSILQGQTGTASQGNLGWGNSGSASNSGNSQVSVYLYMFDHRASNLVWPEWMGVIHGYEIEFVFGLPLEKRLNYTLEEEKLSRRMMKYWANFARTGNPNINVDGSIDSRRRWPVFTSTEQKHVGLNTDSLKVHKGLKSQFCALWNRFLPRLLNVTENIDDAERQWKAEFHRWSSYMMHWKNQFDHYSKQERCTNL
ESR1: Estrogen receptor (ESR1, Homo sapiens, UniProt P03372)
Sequence of UniProt P27361 (whole entry, looked up): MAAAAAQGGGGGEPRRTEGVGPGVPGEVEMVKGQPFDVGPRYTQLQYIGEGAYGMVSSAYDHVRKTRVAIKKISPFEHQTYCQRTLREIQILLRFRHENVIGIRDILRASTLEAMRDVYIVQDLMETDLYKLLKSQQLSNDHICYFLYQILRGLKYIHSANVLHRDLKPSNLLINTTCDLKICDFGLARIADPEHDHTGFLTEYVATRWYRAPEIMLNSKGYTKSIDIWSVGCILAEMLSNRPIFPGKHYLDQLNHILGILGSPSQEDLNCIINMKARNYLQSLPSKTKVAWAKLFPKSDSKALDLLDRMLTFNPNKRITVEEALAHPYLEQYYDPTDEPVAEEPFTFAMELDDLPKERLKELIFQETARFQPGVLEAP
Sequence of UniProt P03372 (whole entry, looked up): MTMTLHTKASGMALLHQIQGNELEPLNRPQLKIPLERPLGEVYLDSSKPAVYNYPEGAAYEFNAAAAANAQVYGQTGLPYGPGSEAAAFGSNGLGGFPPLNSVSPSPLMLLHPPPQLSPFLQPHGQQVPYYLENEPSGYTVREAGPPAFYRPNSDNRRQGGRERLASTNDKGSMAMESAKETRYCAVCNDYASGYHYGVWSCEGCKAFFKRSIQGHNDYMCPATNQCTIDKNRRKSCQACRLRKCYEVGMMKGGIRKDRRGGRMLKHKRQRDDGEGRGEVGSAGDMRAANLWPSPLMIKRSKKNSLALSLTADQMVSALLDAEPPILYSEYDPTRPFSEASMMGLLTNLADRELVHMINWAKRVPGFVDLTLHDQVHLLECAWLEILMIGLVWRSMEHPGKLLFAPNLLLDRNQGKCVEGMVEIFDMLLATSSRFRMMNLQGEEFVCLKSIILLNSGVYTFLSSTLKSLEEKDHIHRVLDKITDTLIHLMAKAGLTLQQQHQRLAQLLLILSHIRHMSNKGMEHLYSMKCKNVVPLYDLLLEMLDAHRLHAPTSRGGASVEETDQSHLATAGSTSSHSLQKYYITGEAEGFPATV
Sequence of UniProt P30542 (whole entry, looked up): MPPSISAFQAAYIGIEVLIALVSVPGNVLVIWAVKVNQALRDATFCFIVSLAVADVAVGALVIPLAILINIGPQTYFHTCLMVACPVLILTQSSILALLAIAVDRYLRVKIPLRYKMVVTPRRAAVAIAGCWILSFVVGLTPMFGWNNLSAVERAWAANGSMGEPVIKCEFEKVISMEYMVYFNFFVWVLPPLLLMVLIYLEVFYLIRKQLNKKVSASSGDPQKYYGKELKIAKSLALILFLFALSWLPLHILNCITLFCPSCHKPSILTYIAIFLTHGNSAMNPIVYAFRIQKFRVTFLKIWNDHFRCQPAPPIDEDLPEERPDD
Sequence of UniProt P43119 (whole entry, looked up): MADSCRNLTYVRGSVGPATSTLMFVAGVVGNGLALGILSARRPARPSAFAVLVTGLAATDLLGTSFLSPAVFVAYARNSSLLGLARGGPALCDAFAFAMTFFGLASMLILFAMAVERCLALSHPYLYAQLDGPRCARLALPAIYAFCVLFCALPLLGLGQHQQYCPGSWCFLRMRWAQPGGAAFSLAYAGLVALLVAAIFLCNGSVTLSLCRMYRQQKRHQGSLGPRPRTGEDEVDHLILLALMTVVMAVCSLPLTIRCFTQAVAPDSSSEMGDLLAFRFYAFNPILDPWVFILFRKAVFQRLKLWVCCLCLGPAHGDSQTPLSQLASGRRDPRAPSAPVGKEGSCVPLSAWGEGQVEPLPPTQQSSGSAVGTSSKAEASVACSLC
Sequence of UniProt Q6DT37 (whole entry, looked up): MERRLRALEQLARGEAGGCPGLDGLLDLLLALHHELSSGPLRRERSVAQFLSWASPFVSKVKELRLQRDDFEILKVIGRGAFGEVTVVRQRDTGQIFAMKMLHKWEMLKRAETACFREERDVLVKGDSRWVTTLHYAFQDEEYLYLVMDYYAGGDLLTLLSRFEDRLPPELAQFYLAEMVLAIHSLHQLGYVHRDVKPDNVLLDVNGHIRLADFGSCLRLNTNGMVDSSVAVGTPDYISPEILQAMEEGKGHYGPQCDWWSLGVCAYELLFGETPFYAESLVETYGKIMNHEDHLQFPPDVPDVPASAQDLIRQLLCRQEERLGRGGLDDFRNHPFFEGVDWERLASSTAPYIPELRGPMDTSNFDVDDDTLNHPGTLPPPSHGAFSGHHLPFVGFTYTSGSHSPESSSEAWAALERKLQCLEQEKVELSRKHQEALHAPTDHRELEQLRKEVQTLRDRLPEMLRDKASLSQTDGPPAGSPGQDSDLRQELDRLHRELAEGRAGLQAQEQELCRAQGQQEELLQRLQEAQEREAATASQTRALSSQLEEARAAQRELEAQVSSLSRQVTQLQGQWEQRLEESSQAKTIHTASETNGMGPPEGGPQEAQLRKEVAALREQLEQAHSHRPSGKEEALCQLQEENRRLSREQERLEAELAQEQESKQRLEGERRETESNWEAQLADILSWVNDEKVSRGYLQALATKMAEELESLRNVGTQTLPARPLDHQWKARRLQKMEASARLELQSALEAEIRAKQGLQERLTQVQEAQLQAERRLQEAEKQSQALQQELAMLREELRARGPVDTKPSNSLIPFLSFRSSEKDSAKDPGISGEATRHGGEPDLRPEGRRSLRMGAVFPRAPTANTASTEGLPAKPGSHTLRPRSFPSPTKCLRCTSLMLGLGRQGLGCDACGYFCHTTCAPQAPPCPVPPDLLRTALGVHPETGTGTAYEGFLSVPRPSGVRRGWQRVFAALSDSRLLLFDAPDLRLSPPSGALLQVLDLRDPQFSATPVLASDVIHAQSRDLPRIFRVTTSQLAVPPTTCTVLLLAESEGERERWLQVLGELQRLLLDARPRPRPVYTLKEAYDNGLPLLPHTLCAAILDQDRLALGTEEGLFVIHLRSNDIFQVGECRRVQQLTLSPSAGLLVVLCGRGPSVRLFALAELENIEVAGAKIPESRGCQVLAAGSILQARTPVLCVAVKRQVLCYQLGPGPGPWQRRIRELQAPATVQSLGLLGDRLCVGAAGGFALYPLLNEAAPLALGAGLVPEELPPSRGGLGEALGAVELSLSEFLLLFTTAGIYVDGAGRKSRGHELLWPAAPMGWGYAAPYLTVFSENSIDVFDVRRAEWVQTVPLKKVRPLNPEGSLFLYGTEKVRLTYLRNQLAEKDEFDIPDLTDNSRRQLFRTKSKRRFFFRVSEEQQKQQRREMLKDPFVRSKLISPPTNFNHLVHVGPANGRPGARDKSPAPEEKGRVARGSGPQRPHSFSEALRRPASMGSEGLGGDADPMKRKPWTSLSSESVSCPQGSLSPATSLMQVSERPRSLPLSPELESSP
Sequence of UniProt Q9JLB5 (whole entry, looked up): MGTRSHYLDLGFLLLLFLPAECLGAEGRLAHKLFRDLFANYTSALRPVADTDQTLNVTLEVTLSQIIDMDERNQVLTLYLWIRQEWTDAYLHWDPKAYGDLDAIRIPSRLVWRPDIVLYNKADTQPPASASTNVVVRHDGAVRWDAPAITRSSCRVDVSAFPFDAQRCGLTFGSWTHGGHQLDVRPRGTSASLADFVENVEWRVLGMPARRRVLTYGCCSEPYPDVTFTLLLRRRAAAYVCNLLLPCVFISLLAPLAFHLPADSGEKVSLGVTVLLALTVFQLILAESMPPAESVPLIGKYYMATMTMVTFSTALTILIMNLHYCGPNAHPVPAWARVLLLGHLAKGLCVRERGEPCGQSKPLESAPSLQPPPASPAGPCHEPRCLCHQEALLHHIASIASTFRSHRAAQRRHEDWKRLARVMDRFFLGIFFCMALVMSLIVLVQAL
Sequence of UniProt P07026 (whole entry, looked up): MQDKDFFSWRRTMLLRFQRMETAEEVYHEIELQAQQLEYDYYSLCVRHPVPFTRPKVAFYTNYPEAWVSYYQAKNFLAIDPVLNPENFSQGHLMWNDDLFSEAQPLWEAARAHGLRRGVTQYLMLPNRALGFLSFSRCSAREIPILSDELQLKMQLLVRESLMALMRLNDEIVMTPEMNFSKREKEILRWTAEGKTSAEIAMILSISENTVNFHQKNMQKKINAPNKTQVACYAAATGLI
Sequence of UniProt O43194 (whole entry, looked up): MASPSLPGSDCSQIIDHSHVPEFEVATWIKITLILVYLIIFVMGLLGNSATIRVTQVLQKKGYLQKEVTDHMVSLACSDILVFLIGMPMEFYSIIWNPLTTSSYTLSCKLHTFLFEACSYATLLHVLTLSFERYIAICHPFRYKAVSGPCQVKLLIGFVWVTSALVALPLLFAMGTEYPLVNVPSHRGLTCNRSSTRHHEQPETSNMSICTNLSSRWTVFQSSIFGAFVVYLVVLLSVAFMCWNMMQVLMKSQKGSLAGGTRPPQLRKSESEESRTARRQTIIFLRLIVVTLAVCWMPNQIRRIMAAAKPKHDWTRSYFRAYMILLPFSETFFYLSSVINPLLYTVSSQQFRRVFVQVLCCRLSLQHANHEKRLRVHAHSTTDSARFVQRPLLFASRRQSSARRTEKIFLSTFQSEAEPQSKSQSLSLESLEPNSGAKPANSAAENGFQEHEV

`Nc1ccncc1` has a potentiation of 87% (Glutamate receptor 2 (Homo sapiens, UniProt P42262); ion current, positive allosteric modulator, automated patch clamp; HEK293; 10 µM).
`NCc1cc(=O)[nH]o1` has an EC30 of 2700 nM (GABA-A receptor; GABA-A site (alpha1/beta2 interface), with gamma-2 subunit (Homo sapiens, UniProt P14867+P47870); ion current, whole-cell patch clamp; HEK293, stably transfected).
With `NC(=O)CCCSc1nc(N)nc(-c2c(Cl)cc3c4c(cccc24)COC3)n1` the maximum inhibition was 32.4% (human coronavirus OC43; virus-induced cell killing; MRC-5; screen).
The remaining binding of `COc1ncccc1-c1cnn2ccc(N3CCN(C(=O)OC(C)C)CC3)nc12` is reported as 48% (Tyrosine-protein kinase JAK1, JH2 pseudokinase domain (JAK1, Homo sapiens, UniProt P23458); KINOMEscan binding; 1 µM; baseline: untreated control).
With `COc1ccc2[nH]c3c(c2c1)CCN(C)CC3.Cl` the Hill coefficient was 1.6 ± 0.1 (Nicotinic acetylcholine receptor alpha9/alpha10 (Rattus norvegicus, UniProt P43144+Q9JLB5); ion current, inhibitor, two-electrode voltage clamp; Xenopus laevis oocytes, rat; added: 100 µM acetylcholine).
`[2H]c1c([2H])c([C@]2([2H])CCCN2C(=O)C(C)(C)Oc2ccc3cn[nH]c3c2)c([2H])c([2H])c1C([2H])([2H])[2H]` has a remaining binding of 88% (Serine/threonine-protein kinase LATS2 (LATS2, Homo sapiens, UniProt Q9NRM7); KINOMEscan; 1 µM; baseline: DMSO control).
`CC(C)[C@@H](O)CC[C@@H](C)[C@H]1CC[C@H]2[C@@H]3CC=C4C[C@@H](O)CC[C@]4(C)[C@H]3CC[C@]12C` has a current potentiation of 174 ± 4.9% (Glutamate NMDA receptor; GRIN1/GRIN2B (GRIN1/GRIN2B, Homo sapiens, UniProt Q05586+Q13224); ion current, positive allosteric modulator, two-electrode voltage clamp; Xenopus oocytes; 10 µM, wild type, added: 100 µM glutamate and glycine; baseline: absence of compound).
The inhibition of `COc1ccc(N2C(=O)N(c3c(C)cccc3Cl)Cc3cnc(Nc4ccc(C5CCN(C)CC5)cc4OC)nc32)nc1` is reported as 3.61% (Cyclin-dependent kinase 9 (CDK9, Homo sapiens, UniProt P50750); kinase activity, inhibitor; 0.5 µM, complex with -CYCLINT1).
For `O=C(Nc1cnccc1Cl)N1CCN(Cc2ccc3c(c2)OC(F)(F)O3)CC1`, the inhibition was 21% (Adenosine receptor A1 (ADORA1, Homo sapiens, UniProt P30542); binding; 50 µM, added: [3H]DPCPX).
`COc1cc(N)c(Cl)cc1C(=O)NC1CN2CCC1CC2` (centres unmarked): “log2 fold change” -0.03 (G-protein coupled receptor 39 (GPR39, Homo sapiens, UniProt O43194); β-arrestin recruitment, TANGO luminescence; concentration not given; baseline: basal luminescence).
For `COC(=O)[C@@]1(O)C[C@H]2O[C@]1(C)n1c3ccccc3c3c4c(c5c6ccccc6n2c5c31)C(=O)NC4`, the kinase activity was 76.1% and 78.8% and 55.7% (Mitogen-activated protein kinase 3 (MAPK3, Homo sapiens, UniProt P27361); ADP-Glo; 29 nM, added: MBP substrate).
`COc1ccc(-c2csc(N/N=C(/C=C/c3c(Cl)cccc3Cl)C(=O)O)n2)cc1` gave a selectivity index of 10 (ache; Ellman; baseline: IC50 BChE over IC50 AChE).
`O=C(c1ccc(Cl)cc1)N1CCN2C(=O)N(OC(=O)N3CCOc4ccccc43)C(=O)C2C1` (centres unmarked) — result for “mean protein ratio”: 1.27 (Kynurenine formamidase (AFMID, Homo sapiens, UniProt Q63HM1); MS-based ABPP; SW-620 conditioned medium; 10 µM, 1 h, 37 °C; baseline: treated over control).
`Cc1nn(C)cc1-c1nc2c(N3CCN(Cc4ccc(Cl)cc4)CC3)c(Cl)cnc2[nH]1` has a remaining binding of 100% (Serine/threonine-protein kinase MRCK gamma (CDC42BPG, Homo sapiens, UniProt Q6DT37); binding, KINOMEscan; 1 µM).
`O=C(O)COP(=O)(O)O` gave a Ki ratio of 830 (Triosephosphate isomerase (TPI1, Gallus gallus, UniProt P00940, G210A/S211G/Y208T); enzyme activity, competitive inhibitor, GPDH/NADH-coupled; pH 6.4, 25 °C, ionic strength 0.1 NaCl, added: glyceraldehyde 3-phosphate substrate; baseline: mutant over wild type).
For `Nc1ncnc2c1ncn2[C@@H]1O[C@H](COP(=O)(O)OP(=O)(O)O)[C@@H](O)[C@H]1O`, the ΔH was -2.2 ± 0.0514 kcal/mol (Cell cycle histidine kinase CckA, R374A; cytoplasmic region (Caulobacter vibrioides, UniProt Q9X688, R374A); binding, ITC; added: without c-di-GMP).
For `CCCCCCCC(=O)N[C@H]1CCOC1=O`, the Emax was 105% (Regulatory protein SdiA (sdiA, Escherichia coli, UniProt P07026)).
Under “normalised MST signal”, `O=C(O)Cc1c[nH]cn1` is recorded as 0.758 (Sodium- and chloride-dependent taurine transporter (SLC6A6, Homo sapiens, UniProt P31641, Y138A); binding, microscale thermophoresis; 500 µM, room temperature, added: 50 nM labelled protein; higher = more binding).
The EC25 of `Oc1ccc(-c2cc(Cl)ccc2Cl)c(Cl)c1` is reported as 100 nM (ESR1; reporter gene, agonist; T47D.luc; 24 h; baseline: estradiol).
For `CN1C(=O)CC[C@H](N2Cc3c(ccc4c3OCC43CCN(C[C@@H]4CCC5(CCN(c6ccc([C@@H]7c8ccc(O)cc8CC[C@@H]7c7ccccc7)cc6)CC5)OC4)CC3)C2=O)C1=O`, “ER protein level” read “no effect” (ESR1; degrader, Western blot; MCF7 (ER wild-type); 10 and 100 nM, 7 h).
For `CN1CCN(c2cc(-c3ccncc3)c(-c3ccc4ccccc4c3)nn2)CC1`, the activation was -0.1% (P2Y purinoceptor 11 (P2RY11, Homo sapiens, UniProt Q96G91); agonist, FLIPR; 12.5 µM).
`O=C(O)C(F)(F)C(F)(F)C(F)(F)C(F)(F)C(F)(F)C(F)(F)C(F)(F)F` — result for “binding fold change”: 87.1 (Fatty acid-binding protein, liver (FABP1, Homo sapiens, UniProt P07148); affinity selection mass spectrometry; 100 nM, added: pooled compounds; baseline: other proteins).
`O=c1c2ccccc2oc2cc(OCCCCc3ccccc3)ccc12` has a reaction velocity of 0.0006 a.u. (ache; enzyme activity; 0.36 µM, added: substrate 0.43 mM; higher = faster reaction).
For `Clc1ccc2nc(N3CCC(NCCc4cccnc4)CC3)sc2c1`, the cytotoxicity efficacy was -15.3% (Vero-E6; CellTiter-Glo ATP; concentration not given, 72 h, second round 5-point; baseline: DMSO 0%, hyamine -100%, more negative, more toxic).
`CC1=C(C)C(=O)c2ccccc2C1=O` gave an affinity ratio of > 3000 fold (Reaction center protein L chain, QB site (pufL, Cereibacter sphaeroides, UniProt P0C0Y8); binding; baseline: QA site over QB site).
The maximum inhibition of `O=C(O)C[C@@]1(O)C[C@@H](CCCCCCc2ccc(Cl)cc2Cl)OC1=O` is reported as 18.9% (human coronavirus OC43; virus-induced cell killing; MRC-5; screen).
With `Cc1cn([C@H]2C[C@H](O)[C@@H](COP(=O)(O)Oc3ccc([N+](=O)[O-])cc3)O2)c(=O)[nH]c1=O` the kcat was 1.6 s⁻¹ (Autotaxin (ENPP2, Homo sapiens, UniProt Q13822); phosphodiesterase activity, substrate).
The relative abundance of `C[C@H]1CN(c2n[nH]c3nc(N[C@H]4CC[C@H](NS(=O)(=O)CCC(F)(F)F)CC4)ncc23)CCO1` is reported as 1.09 (Scaffold protein ILK (ILK, Homo sapiens, UniProt Q13418); inhibitor, Kinobeads competition profiling; 20 µM; baseline: vehicle).
`O=C(Nc1cccnn1)N1CCC(=Cc2cccc(Oc3ccc(C(F)(F)F)cn3)c2)CC1` gave an inhibition of 30% (Prostacyclin receptor (PTGIR, Homo sapiens, UniProt P43119); radioligand binding, inhibitor; 50 µM, human, added: [3H]iloprost).
